# Experimental data from different studies.
# Numbered parts are unrelated; each lists some results of a single study. Substitutions count along the parent as printed.

# Block 1
# Target: ABI1, truncated, D143A, DHFR fusion (Arabidopsis thaliana)
# Method: DHFR PCA, deep sequencing
# Sample: yeast
# Setting: methotrexate growth selection, single substitutions
# With: (+)-ABA 17 µM
# Reference: wild-type fitted maximum
# Direction: higher = stronger binding
# Starting sequence: PYL1, truncated, DHFR fusion (Arabidopsis thaliana); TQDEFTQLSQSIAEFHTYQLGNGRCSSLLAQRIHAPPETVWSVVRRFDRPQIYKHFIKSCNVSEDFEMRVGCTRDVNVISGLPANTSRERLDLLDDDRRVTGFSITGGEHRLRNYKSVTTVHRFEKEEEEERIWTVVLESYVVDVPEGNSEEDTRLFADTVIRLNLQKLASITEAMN; partner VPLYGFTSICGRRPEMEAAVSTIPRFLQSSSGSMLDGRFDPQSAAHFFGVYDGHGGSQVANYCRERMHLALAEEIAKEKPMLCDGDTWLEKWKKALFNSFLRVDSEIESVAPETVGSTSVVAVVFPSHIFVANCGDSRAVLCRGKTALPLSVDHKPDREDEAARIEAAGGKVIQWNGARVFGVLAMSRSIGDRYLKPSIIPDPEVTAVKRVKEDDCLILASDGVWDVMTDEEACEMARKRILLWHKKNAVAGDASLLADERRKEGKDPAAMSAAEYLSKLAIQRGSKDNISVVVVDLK
Variant,relative binding score [%]
T160C,71.3
N61Y,83.9
K168G,71.5
S150Y,14.3
E4M,84.5
F157Y,49.1
F124T,54
D48L,4.66
D95R,9.51
T17F,37.3
S104F,7.08
K116H,73.9
V136I,88.1
F47G,-11.8

# Block 2
# Target: CRIPT, C-terminal peptide
# Method: DHFR complementation, deep sequencing
# Sample: yeast
# Setting: single substitutions, model-inferred values
# Reference: wild type
# Direction: higher = weaker binding
# Starting sequence: ERBIN, PDZ domain 1 (human); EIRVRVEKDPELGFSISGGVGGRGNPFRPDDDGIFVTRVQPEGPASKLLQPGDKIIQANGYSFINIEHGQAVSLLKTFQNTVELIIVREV; partner TKNYKQTSV
Variant,binding free energy change [kJ/mol]
L48M,0.205
L75R,5.15
V82E,2.83
L74Q,0.0993
Q50C,0.177
E67N,1.02
S46E,0.258
I86G,1.57
A45T,1.38
V87F,0.239
I34D,0.929
R23L,-0.157
G21I,2.99
P51G,0.626
Y61M,-0.086
D9W,1.52
E1F,1.01
K54W,1.53
K76V,0.775
F35L,2.78
G18S,6.19
T37M,0.597
V82S,2.66
L75H,3.2
I86N,6.24

# Block 3
# Target: RNA binding protein fox-1 homolog 2, RRM domain, GST-SBP tag (RBFOX2, Homo sapiens, UniProt O43251-10, residues 100-194)
# Method: RNA Bind-n-Seq
# Molecule type: RNA
# Sample: in vitro
# Tested at: 365 nM
# Setting: natural RNA segment, single round, ends assumed
# Reference: no-protein control
# Direction: higher = stronger binding
# Shared flanks, not repeated: GGGAGUUCUACAGUCCGACGAUC … UGGAAUUCUCGGGUGCCAA
# Residues (chain): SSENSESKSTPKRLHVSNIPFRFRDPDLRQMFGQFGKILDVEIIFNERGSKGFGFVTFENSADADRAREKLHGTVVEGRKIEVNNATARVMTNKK
Strand,RBNS enrichment (R)
AAAGAUAACAUAUAUAUCCAACUUUCUGAAAUGAAAUGUUUUUAGAUUACUUUUUCAACUGUAAAUAAUGUACAUUUAAUGUCACAAGAAAAAAAUGUCUUCUGCAAAUU,0.49
CAAGAAAACUUUGAAAAGAACAUGCUUUAACUGAAGCAUUGGACUCUGCAGCUUUCUGUGUAAGGCCCGUGUACUCCCACUGGGCAGGGUGAGGACCAAAAAUCUGAAAC,0.292
CUGAGUGUCCUCUCUUAACAUCCAAGCCUUUUAAUGAAAUCGUACUGAAAUCUGUAUCAGCUAAGAGUCCUCCAAUCCUGGUCCCAUUAACUCCAAGUGCCUUUUUGACA,0.519
UGUUCAGGGGCAGUGGGGGGCUCCAGGCACGGUCAAUGAAGGAAACAGUGCCUGUCCACCCACCCUGCGUGUCACUGUGGCGGCCUGGCUGUCGCUGCUUUUUGUCCUCU,0.391
AUUAUUCCUUAAGAAGUCUGUGUUAUAUUACCACGGAACACCCAAUAAAGCAAAAUGUGGUUGUUUCGAGGUGUGUCUGUAUUGAGACUCCCACAGUGUGUCGGCCUCUC,0.368
UGACAUUUAAUAAUGACUUAGCAAGCAUUGGAUUUUUUUUUUUUGUUGUUCUUGUUAGCUAAAGCACUUUUAGUUUUAUCCUUCCCUAGUAGGUUAUUGUAUCAGACUAG,0.922
UGUAGCACAAAGGGUGUUAUCUUCCUAUAGCAGAUCAACAGUGGCAGCUCACAGUACCAGCCAGCUUUAGACCUCCCAGUGCAAAGCCCAGCGCAGCACUAAGCCUUAAG,0.445
UCAUGUUCCUUAGACCUGAUUUGUUUUGAUAUUUUACUGCCUUUCCUUUUAAUUUUUGUUUGAAUGAGAAAAGUUUAAUACAACAGGUGUCCAGAAUACUUGCAGUAUAA,2.41
AGGAAACGUUUACUACUAAGGUUAGGCCUGCAGUUGCUCUGGAACAUUCCAUGGAGAAUGCAUUCAUCAAACGGCCCGAAAGAAGCUACAUUUUGUUGGGAAGCUGGAUA,0.517
UAUUUGUUACUAAAGCUAUAUUUCUGAUAAAAAAUAUUUUAGGAUAAUUGCCUACAGAGGGAUUUAUUUUUAUGAUGCUGGAAAUAUGAAAUGUAUUUUAAAAUUUCACU,0.776
CAUGAACCUAGAGAUGCUAUCGGUGACAUCCGCCGUUGUGUUGUUCUUUUGCAGCCGUCUGGGCCGCUUCUCGGUGAGCCGCGGUAGGCGUGGCUGCACGGAGUCACAAG,0.219
UGCUGUUCUUCUAUGUCGUCCUCUUGAGAAAGCUGCAAGGGUUUACCUCUUUCCUUGACUCUCUUCUUAUUUGUAAUACUCUGAGUUCUGCAUCUGUCUCAGACAGGAGC,0.335

# Block 4
# Target: CCND1, cyclin fold, Cln2 fusion (human)
# Method: yeast growth competition, sequencing
# Sample: yeast
# Setting: weak parent motif
# Reference: not given
# Direction: higher = stronger binding
# Starting sequence: FZR1 docking peptide (human); QDYERRLLRQIVI; partner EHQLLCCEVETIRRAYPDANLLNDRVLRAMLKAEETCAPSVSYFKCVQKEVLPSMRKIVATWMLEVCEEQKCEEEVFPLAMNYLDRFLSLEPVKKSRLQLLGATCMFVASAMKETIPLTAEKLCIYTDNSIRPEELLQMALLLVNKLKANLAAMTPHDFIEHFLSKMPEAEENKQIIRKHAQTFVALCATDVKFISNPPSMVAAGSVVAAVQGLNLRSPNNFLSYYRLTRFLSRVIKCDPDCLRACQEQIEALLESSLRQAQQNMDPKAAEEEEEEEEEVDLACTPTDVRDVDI
Variant,normalised enrichment score
V12A,-0.292
D2A,-0.0147
I13A,-0.464
R5K L8F,0.0319
R5A,-0.000856
E4A,0.254
R5K,-0.116
L7A,0.0586
Q1A,0.0557
R5A L7A,0.191

# Block 5
# Target: Interferon regulatory factor 5, full length, phosphomimetic (IRF5, Homo sapiens, UniProt Q13568-2, residues 1-514, S451D/S453D/S456D/S462D)
# Method: protein-binding microarray
# Molecule type: double-stranded DNA, one strand shown
# Sample: in vitro
# Tested at: 940 nM top
# Setting: 60-bp whole probe
# With: salmon DNA 0.4 mg/ml
# Reference: random background probes
# Direction: higher = stronger binding
# Shared flanks, not repeated: GCCTAGCAC … GTCTTGATTCGCTTGACGCTGCTG
Strand,fitted relative affinity [z-score]
TTAGGTTTCCTACTGGTTTAGTGCTAG,0.709
TGCAACATCCCAATGGCCCTGTGCTAG,0.227
TTAGGTGTCCTTCTCCTTTAGTGCTAG,0.0767
ATAGATTTCAGTTCCGATTAGTGCTAG,2
GGACAGTAATGGAGGTATAAGTGCTAG,-0.425
TACGGTATCCTTTTCCTGACGTGCTAG,0.832
TATGTTCCCTATTTAAGGCAGTGCTAG,0.574
ACTTTTTTTTTTCCCTGAAAGTGCTAG,1.34
TCGTATGTGACCTTTTTAAGAGTGCTA,0.617
GACGCTATCGGGTATCGGGACGTGCTA,0.754
TTAGGACGGCTACTGCTTTAGTGCTAG,-0.772
GACGCACTGAGTATCGAGACGTGCTAG,1.73
TTAGGTCTCCTACTGCCTTAGTGCTAG,0.0523
TTAGGTTTCCTTCTCCTGTAGTGCTAG,2.35
TTCCAACTCTGTTTTCGCTTGTGCTAG,1.27
TGGAGCCTAAGGTTTAGGCTCGTGCTA,-0.998
TCAAATGTCCTTTCTCCAACTGTGCTA,0.738
TTAGGTATCCTACTGCGTTAGTGCTAG,-0.157
GACGATTCCAGTTTCGACACGTGCTAG,5.05
TCAACTTCCCAATTGTCACTGTGCTAG,0.589
GACGGACTGGGGACTGGGGATGTGCTA,-0.195
TTACGTTTCGGACTGGGTTAGTGCTAG,3.72

# Block 6
# Target: Sal-like protein 4, full length isoform A (SALL4, Homo sapiens, UniProt Q9UJQ4, residues 1-1053)
# Sequence of UniProt Q9UJQ4 (whole entry, looked up): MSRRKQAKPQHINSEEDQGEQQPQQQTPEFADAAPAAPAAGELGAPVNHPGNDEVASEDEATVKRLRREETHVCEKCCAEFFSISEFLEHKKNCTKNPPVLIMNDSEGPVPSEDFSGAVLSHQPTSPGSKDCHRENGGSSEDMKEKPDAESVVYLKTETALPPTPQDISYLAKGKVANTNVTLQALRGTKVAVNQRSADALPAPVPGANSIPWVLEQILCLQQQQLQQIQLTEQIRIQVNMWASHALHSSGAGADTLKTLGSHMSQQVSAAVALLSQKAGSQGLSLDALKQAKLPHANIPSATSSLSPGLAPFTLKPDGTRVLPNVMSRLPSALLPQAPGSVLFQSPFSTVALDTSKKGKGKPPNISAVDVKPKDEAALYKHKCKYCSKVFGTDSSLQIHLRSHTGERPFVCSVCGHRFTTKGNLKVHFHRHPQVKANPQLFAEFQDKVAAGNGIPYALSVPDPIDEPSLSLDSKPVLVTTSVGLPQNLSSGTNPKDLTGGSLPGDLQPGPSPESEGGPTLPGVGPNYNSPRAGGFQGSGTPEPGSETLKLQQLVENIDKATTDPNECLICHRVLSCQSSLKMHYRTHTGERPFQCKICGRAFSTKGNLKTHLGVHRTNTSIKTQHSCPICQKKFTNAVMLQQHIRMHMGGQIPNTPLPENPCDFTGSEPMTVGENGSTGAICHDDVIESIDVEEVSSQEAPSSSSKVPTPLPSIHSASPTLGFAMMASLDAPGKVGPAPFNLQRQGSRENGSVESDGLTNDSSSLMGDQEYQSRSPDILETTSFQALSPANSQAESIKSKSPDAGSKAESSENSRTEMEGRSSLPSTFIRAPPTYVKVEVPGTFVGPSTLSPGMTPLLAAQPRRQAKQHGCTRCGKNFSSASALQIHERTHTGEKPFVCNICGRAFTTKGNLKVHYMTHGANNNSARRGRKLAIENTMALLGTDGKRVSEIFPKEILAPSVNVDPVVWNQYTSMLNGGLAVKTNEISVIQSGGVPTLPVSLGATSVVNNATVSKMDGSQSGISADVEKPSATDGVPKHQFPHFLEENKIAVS
# Method: universal PBM
# Molecule type: double-stranded DNA, one strand shown
# Sample: in vitro
# Tested at: 600 nM
# Setting: 8-mer, flanks averaged, mean of replicates
# Direction: higher = stronger binding
Strand,E-score
CCGCAACG,-0.116
ATTCCGCG,-0.243
GAAGTAGC,-0.0822
TAGGAGAA,0.0853
AGGCCAAG,-0.198
AGATCACA,-0.0204
CAGAATAG,0.0944
GATATTGA,0.296
CCGTACCA,-0.146
GGCCTCTA,-0.254
GCAATAAC,0.221
AGAATGCC,0.0688
CCTGGGTC,-0.311
AGCGCTAC,-0.0344
AAAAGACG,0.102
CTGGTGCC,-0.319
GCATACAA,0.171
AGTAGCCA,-0.131
GGAAGTCC,-0.204
GAAGAGCC,-0.268
GGGTTCCA,-0.225
CGGTTCCC,-0.315

# Block 7
# Target: Histone acetyltransferase KAT6A, winged helix 2, GST fusion (KAT6A, Homo sapiens, UniProt Q92794, residues 85-181)
# Method: protein binding microarray
# Molecule type: double-stranded DNA, one strand shown
# Sample: in vitro
# Tested at: not given
# Setting: 8-mer, flanks averaged, mean of 2 arrays, mostly near background
# Reference: not given
# Direction: higher = stronger binding
# Target sequence (chain): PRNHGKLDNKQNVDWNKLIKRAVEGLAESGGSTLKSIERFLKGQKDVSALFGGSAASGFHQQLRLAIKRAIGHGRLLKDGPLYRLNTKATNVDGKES
Strand,E-score
ACGTTGCA,-0.0923
CGGTTACG,-0.0584
AGCGTACT,-0.168
AATAAATA,0.209
GATTAACC,-0.0412
AAGCGCCG,0.0154
CACAGACC,0.209
AACAAACT,0.245
TACTCACA,-0.0991
AAATCAGG,-0.0336
CAACCACA,0.0763
CCTTCAAA,-0.00316
AGCTACGA,-0.177
ACCTCTAT,0.00361
ATTAGGGA,-0.154
GTCTCTCA,-0.0802
ACCAATTC,-0.152
CGAGCGTC,-0.0161
AGTCGCTC,-0.139
GGTTCACA,0.118
CGCAAACC,0.218
CTCGTGTC,0.0934
TAAAATTA,0.169
ACTATGCG,-0.0564
AGTATAAA,0.195

# Other studies, line by line
Molecule,target,test,test system,conditions,scale,endpoint,value
"PhoQ, residues 284 288 289 292 302 303 AMDMFI","PhoP, residues 12 14 15 18 19 QWHVF (Escherichia coli, UniProt P23836)","Sort-seq, item: YFP reporter",E. coli,"PhoQ-PhoP variant library, with: 10 µM Mg2+","reference: high Mg2+ state, higher = stronger signaling",fold induction,1.87
